Measurements of several laboratories.
Protocols differ between the studies behind these lines. “And” joins repeats or separate records; there may be more than shown. ± marks the error that the study gave.
Nuclear receptor subfamily 2 group C member 2 ligand-binding domain: Nuclear receptor subfamily 2 group C member 2, ligand-binding domain (Homo sapiens, UniProt P49116)
Sequence of UniProt P27361 (whole entry, looked up): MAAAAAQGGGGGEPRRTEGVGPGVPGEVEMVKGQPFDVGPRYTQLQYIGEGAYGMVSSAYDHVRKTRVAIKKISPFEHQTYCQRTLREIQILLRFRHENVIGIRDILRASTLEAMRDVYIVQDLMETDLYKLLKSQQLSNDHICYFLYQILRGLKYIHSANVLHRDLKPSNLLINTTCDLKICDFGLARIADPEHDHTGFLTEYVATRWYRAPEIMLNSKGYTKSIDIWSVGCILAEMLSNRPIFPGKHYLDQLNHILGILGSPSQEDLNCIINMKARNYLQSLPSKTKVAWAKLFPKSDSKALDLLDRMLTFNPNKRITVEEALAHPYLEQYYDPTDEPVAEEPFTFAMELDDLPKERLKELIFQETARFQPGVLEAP
Sequence of UniProt P11388 (whole entry, looked up): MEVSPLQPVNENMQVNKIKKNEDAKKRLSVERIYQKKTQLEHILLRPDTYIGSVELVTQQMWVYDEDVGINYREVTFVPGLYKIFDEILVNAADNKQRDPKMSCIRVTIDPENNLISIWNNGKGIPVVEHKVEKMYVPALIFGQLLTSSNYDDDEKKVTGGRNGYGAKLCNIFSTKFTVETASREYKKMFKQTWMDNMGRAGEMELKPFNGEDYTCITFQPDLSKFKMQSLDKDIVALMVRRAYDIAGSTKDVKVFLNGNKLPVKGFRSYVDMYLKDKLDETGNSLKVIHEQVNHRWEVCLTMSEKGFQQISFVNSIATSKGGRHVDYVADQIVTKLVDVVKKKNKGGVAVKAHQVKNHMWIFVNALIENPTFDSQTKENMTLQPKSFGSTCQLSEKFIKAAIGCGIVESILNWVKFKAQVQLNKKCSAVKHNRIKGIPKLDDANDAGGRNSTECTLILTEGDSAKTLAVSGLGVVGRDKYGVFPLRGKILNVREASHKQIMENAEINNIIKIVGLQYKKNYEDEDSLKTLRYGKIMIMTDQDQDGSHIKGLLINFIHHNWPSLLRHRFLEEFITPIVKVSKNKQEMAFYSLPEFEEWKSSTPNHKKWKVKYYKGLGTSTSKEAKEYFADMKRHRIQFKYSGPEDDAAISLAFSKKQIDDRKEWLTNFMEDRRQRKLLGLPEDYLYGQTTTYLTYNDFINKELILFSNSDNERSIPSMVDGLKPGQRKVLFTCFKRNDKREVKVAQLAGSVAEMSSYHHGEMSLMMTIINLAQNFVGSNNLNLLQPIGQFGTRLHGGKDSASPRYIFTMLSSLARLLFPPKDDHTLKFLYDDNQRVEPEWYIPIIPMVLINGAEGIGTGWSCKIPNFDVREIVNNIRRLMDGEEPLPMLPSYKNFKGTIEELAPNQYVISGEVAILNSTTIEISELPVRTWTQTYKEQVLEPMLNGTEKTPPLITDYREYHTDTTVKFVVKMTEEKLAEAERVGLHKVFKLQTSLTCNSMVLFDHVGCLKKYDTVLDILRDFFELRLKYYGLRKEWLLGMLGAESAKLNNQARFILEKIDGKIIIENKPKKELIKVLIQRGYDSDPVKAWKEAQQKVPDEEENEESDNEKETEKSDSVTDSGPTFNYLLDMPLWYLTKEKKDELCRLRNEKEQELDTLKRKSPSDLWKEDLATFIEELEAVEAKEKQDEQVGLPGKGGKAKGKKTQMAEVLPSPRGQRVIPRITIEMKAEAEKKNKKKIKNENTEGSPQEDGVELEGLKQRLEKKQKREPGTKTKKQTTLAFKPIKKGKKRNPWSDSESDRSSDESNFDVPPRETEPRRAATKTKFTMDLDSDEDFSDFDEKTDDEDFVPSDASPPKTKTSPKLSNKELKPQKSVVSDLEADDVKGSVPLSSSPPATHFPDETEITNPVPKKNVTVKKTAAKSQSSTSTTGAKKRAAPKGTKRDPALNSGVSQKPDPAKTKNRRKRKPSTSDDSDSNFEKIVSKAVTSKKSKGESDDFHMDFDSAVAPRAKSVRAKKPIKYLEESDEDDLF
Sequence of UniProt P49116 (whole entry, looked up): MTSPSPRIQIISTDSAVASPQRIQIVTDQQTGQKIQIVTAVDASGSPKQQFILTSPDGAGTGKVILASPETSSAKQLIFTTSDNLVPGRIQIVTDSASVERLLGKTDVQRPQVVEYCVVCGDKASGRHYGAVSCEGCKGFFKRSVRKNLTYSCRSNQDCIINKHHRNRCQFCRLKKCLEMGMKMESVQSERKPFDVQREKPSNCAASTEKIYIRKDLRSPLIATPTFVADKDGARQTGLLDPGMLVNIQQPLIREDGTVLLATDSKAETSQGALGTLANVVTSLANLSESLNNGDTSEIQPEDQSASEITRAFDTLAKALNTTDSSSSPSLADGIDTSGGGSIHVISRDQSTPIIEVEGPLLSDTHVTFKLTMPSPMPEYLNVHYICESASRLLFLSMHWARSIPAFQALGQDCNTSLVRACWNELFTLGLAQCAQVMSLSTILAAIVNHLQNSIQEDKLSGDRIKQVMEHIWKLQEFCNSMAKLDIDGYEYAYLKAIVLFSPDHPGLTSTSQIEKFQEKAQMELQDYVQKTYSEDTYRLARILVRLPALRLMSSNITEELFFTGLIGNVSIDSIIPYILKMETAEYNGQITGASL
Sequence of UniProt Q59W62 (whole entry, looked up): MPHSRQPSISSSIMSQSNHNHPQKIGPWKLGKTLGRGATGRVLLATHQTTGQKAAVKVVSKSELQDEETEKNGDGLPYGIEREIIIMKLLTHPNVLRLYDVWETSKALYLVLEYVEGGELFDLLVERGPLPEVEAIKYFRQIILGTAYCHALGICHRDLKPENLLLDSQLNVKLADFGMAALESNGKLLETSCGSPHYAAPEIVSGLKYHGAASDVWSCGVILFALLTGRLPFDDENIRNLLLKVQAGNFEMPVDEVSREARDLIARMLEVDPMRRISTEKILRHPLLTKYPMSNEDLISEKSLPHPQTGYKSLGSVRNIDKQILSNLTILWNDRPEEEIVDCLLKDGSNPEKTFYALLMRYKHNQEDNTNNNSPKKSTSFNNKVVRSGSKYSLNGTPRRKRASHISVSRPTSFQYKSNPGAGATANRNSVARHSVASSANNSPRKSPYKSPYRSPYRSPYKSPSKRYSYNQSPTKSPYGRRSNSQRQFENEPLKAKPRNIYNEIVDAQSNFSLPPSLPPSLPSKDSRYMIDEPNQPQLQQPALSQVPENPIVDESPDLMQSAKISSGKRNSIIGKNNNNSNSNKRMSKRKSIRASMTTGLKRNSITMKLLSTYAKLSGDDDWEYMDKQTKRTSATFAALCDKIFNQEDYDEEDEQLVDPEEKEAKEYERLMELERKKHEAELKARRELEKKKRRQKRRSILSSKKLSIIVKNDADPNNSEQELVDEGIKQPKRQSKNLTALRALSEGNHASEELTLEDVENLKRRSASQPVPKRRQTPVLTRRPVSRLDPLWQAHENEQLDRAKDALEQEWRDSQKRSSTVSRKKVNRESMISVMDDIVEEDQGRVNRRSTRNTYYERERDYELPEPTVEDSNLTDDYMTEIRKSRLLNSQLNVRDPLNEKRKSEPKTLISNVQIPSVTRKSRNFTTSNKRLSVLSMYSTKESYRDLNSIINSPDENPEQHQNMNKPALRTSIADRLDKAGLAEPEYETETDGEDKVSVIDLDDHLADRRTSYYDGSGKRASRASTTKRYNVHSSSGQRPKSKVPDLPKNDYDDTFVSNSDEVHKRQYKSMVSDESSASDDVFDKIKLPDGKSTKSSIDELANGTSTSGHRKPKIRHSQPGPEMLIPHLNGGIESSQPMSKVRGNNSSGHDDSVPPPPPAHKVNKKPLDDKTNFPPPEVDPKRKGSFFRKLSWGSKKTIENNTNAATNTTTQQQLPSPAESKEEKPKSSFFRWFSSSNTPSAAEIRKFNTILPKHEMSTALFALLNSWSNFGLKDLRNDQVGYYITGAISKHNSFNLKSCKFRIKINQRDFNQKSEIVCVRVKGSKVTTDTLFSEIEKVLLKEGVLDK
Sequence of UniProt Q16774 (whole entry, unmodified, looked up): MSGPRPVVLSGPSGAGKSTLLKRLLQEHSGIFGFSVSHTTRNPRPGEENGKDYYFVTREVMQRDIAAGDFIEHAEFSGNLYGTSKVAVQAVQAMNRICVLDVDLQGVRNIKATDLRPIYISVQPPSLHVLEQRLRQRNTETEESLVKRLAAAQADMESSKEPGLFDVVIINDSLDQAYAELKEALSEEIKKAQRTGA
Sequence of UniProt P00441 (whole entry, unmodified, looked up): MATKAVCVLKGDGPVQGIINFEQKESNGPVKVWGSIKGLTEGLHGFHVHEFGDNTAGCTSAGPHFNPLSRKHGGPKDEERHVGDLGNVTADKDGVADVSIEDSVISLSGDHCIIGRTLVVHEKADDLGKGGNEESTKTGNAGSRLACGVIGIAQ
Sequence of UniProt Q695T7 (whole entry, looked up): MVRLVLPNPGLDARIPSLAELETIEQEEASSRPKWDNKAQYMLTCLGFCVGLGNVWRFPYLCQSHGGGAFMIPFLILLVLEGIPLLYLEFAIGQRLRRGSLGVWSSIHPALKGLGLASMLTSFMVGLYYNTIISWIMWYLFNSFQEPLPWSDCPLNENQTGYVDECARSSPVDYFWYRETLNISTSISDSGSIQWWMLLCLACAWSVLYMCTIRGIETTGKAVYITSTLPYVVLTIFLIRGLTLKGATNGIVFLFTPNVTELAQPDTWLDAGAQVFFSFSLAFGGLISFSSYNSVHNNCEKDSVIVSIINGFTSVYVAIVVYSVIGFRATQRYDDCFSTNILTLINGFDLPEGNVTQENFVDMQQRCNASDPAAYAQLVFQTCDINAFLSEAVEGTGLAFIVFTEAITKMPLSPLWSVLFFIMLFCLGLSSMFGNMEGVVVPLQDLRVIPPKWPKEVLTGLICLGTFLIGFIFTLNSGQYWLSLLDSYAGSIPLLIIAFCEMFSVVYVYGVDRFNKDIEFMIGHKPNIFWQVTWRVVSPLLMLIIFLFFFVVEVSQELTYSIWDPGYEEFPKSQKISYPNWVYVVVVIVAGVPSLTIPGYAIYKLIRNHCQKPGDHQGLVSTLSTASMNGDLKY

N[C@H](Cc1ccccc1)C(=O)O  -TΔS (PAL1 (Petroselinum crispum, UniProt P24481, Y110F); binding, ITC): 23 kcal/mol
CNCCCC[C@H](NC(=O)[C@@H](NC(=O)[C@H](CCCNC(=N)N)NC(=O)[C@H](C)N)[C@@H](C)O)C(=O)N[C@@H](CCC(N)=O)C(=O)N[C@H](C(=O)N[C@@H](C)C(=O)N[C@@H](CCCNC(=N)N)C(=O)N[C@@H](CCCCN)C(=O)N[C@@H](CO)C(=O)N[C@H](C(=O)NCC(=O)NCC(=O)N[C@@H](CCCCN)C(=O)N[C@@H](C)C(=O)N[C@@H](Cc1ccc(O)cc1)C(=O)O)[C@@H](C)O)[C@@H](C)O  binding free energy (Transcriptional regulator ATRX (ATRX, Homo sapiens, UniProt P46100, F284Y/K251R); isothermal titration calorimetry; pH 7.5, 25.0 °C): -6.35 kcal/mol
Nc1[nH]nc2nnc(-c3c(-c4ccccc4)nn4ccccc34)cc12  kinase activity (MAPK3 (Homo sapiens, UniProt P27361); ADP-Glo; 3.98 µM, together with: MBP substrate): 30.4% and 15.9% and 30.8%
Cc1cc(-c2ccnc3[nH]cc(F)c23)cc(F)c1[C@@]1(O)[C@H](C)CN(C2CCS(=O)(=O)CC2)C[C@@H]1C  inhibition (AKT1 and AKT3; ATP probe binding, KiNativ, measured: Lys2 site; HEK293T cell lysate; 0.1 µM): -4.1%
O=C(O)c1cc(O)c2c(c1)C(=O)c1cccc(O)c1C2=O  cell viability (HepaRG co-cultured with HK-2; MTT; 266.67 µM, 48 h; baseline: untreated control): 4.75 ± 4.14%
C=CC(=O)N1CCC(COCC(=O)N2CCN(c3nc(-c4cnc(N)nc4C(F)F)nc(N4CCOC[C@@H]4C)n3)CC2)CC1  remaining binding (ERBB3 (Homo sapiens, UniProt P21860); KINOMEscan; 1 µM): 100%
Nc1ncnc2c1ncn2[C@@H]1O[C@H](COP(=O)(O)OP(=O)(O)OP(=O)(O)O)[C@@H](O)[C@H]1O  Km (GUK1 (Homo sapiens, UniProt Q16774, S13A); substrate, NADH-coupled): 1100 µM
C=C1C(=O)O[C@@H]2C[C@@]3(C)CCCC(=C)[C@@H]3C[C@H]12  metabolic activity (COS-7; WST-8; 10 µM, 24 h, 0.1% DMSO, unit not given; baseline: vehicle control): 0.91 ± 0.04
c1coc(-c2n[nH]cc2-c2ccnc3ccccc23)c1  log2 fold change (Serine/threonine-protein kinase GIN4 (GIN4, Candida albicans, UniProt Q59W62); kinase binding, MIB/MS competition; Candida albicans lysate; 10 µM; baseline: DMSO, negative = stronger binding): -0.21
[O-][S+]1CCCCS1 (centres unmarked)  target engagement (SOD1 (Homo sapiens, UniProt P00441, G94A); intact protein LC-MS; SOD1 G93A transgenic mice, whole blood; oral, 150 mg/kg, 4 h, mean of two mice): 41.3 % cross-linked dimer
O=c1c(-c2ccc(O)cc2)coc2cc(O)cc(O)c12  koff (Nuclear receptor subfamily 2 group C member 2 ligand-binding domain; SPR imaging; 600 nM): 7.62e-07 s⁻¹
CCNC(=O)/C=C/c1cccc(Br)c1  remaining transport activity (SLC6A19 (Homo sapiens, UniProt Q695T7); inhibitor, L-[14C]leucine uptake; CHO-BC cells; 30 µM, 6 min, unit not given, together with: GPNA 3 mM, JPH203 3 µM; baseline: uninhibited cells): 0.0746
CCCCC[S+]([O-])c1n[nH]c(N)n1 (centres unmarked)  fold enrichment (YTH domain-containing protein 1 (Homo sapiens, UniProt Q96MU7); binding, affinity selection mass spectrometry; baseline: other proteins in batch): 0.547
O=c1nc(SCc2cc(F)cc(C(F)(F)F)c2)nc(SCc2ccc3sccc3c2)[nH]1  linear DNA (TOP2A (Homo sapiens, UniProt P11388); DNA cleavage, competition with etoposide; 15.6 µM, together with: etoposide 50 µM): 11.3% and 9.52%
COc1cc(/C=C/c2ccc(O)cc2)cc(OC)c1  koff fold decrease (O-methyltransferase (Sorghum bicolor, UniProt A0A1B6PFV1); biolayer interferometry; together with: saturating SAH; baseline: apo protein): 12.8 fold
O=C(O)c1cc(O)c2c(c1)C(=O)c1cccc(O[C@@H]3O[C@H](CO)[C@@H](O)[C@H](O)[C@H]3O)c1C2=O  cell viability (HepaRG co-cultured with HK-2; MTT; 66.67 µM, 48 h; baseline: untreated control): 63.4 ± 15.6%
COc1cccc2c(Nc3ccc4[nH]c(C(=O)N/N=C/c5ccc(SC)cc5)cc4c3)cc(C)nc12  metabolic activity (COS-7; WST-8; 3 µM, 24 h, 0.1% DMSO, unit not given; baseline: vehicle control): 0.9 ± 0.1
CCCC[C@H]1CN(c2cccc(OC(F)(F)F)c2)C(=O)CN1Cc1cncn1Cc1ccc(Br)cc1  Ki (Protein farnesyltransferase (Cryptococcus neoformans, UniProt J9VSJ6+T2BPA1); uncompetitive inhibitor; together with: 10 mM phosphate): 500 nM
Cn1nnc2c(C(N)=O)ncn2c1=O  koff (Nuclear receptor subfamily 2 group C member 2 ligand-binding domain; SPR imaging; 600 nM): 5.21e-05 s⁻¹
CC(=O)NCCCC[C@H](NC(=O)CNC(=O)CNC(=O)[C@H](CCCCNC(C)=O)NC(=O)CNC(=O)[C@H](CCCNC(=N)N)NC(=O)CNC(=O)[C@@H](N)CO)C(=O)NCC(=O)N[C@@H](CC(C)C)C(=O)NCC(N)=O  ΔH (BRD1 (Homo sapiens, UniProt O95696, R585F); binding, ITC; 15 °C, together with: peptide 2 mM): -4.92 kcal/mol
